Published values gathered from unrelated publications.
A part holds a random share of what one study measured. Values joined by “and” are separate records of one study, mostly repeats; a detail may differ.
Chain of UniProt Q13557 (whole entry, looked up): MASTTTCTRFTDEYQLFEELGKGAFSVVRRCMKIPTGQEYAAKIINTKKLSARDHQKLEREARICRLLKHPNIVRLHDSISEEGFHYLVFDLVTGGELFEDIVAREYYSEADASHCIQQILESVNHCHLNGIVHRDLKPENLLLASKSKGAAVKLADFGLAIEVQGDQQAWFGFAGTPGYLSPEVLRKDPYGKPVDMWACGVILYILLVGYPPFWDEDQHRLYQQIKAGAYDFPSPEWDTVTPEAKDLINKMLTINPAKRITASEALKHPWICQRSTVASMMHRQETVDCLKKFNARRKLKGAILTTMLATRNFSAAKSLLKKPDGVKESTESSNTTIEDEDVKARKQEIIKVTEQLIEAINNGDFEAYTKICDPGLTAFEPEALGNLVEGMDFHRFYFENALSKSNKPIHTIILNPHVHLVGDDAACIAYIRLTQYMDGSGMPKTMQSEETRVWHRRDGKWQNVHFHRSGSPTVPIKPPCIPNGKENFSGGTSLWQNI
Chain of UniProt Q15831 (whole entry, looked up): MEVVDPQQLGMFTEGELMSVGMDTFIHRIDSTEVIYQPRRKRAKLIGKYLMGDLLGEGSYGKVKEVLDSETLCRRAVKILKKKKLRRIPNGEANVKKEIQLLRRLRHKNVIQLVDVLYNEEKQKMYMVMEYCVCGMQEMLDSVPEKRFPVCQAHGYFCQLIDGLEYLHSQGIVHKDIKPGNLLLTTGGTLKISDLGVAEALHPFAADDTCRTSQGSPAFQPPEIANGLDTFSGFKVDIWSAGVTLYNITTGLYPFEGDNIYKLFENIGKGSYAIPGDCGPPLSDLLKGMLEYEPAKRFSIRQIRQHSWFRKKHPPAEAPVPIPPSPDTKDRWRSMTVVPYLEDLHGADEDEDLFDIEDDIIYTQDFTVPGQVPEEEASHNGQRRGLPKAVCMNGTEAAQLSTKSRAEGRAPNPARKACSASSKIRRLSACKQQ
Chain of UniProt Q9UIK4 (whole entry, looked up): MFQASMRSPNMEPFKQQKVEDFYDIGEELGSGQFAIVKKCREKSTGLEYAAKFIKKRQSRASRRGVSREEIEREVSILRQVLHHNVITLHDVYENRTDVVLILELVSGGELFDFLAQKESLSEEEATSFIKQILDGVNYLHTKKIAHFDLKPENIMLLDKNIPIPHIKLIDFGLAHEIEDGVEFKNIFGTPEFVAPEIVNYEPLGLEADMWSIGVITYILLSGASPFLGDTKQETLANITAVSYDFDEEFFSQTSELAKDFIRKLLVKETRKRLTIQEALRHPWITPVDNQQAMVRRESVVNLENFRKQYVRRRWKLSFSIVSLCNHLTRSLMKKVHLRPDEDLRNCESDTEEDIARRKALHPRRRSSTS
Chain of UniProt Q16288 (whole entry, looked up): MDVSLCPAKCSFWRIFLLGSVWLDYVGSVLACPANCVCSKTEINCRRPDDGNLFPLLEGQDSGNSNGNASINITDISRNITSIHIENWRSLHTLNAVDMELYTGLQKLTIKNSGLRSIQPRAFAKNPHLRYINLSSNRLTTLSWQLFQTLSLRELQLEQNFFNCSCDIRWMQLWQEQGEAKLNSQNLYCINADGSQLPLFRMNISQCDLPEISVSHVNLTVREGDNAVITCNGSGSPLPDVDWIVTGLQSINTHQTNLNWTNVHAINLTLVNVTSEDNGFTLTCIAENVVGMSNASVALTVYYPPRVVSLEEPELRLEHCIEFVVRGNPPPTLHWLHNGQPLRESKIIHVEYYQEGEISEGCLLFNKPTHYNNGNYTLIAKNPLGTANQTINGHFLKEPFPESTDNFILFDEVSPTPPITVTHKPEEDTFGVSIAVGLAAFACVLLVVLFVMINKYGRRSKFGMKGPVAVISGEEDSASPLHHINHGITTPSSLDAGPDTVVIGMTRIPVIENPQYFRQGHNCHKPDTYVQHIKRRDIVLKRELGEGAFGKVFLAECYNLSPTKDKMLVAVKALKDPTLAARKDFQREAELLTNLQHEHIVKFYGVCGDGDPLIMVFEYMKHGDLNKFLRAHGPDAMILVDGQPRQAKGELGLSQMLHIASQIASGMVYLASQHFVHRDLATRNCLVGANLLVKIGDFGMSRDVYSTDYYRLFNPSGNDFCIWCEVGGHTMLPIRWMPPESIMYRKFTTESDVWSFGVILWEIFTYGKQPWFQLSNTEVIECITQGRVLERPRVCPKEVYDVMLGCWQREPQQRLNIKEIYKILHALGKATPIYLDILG
Chain of UniProt P53355 (whole entry, looked up): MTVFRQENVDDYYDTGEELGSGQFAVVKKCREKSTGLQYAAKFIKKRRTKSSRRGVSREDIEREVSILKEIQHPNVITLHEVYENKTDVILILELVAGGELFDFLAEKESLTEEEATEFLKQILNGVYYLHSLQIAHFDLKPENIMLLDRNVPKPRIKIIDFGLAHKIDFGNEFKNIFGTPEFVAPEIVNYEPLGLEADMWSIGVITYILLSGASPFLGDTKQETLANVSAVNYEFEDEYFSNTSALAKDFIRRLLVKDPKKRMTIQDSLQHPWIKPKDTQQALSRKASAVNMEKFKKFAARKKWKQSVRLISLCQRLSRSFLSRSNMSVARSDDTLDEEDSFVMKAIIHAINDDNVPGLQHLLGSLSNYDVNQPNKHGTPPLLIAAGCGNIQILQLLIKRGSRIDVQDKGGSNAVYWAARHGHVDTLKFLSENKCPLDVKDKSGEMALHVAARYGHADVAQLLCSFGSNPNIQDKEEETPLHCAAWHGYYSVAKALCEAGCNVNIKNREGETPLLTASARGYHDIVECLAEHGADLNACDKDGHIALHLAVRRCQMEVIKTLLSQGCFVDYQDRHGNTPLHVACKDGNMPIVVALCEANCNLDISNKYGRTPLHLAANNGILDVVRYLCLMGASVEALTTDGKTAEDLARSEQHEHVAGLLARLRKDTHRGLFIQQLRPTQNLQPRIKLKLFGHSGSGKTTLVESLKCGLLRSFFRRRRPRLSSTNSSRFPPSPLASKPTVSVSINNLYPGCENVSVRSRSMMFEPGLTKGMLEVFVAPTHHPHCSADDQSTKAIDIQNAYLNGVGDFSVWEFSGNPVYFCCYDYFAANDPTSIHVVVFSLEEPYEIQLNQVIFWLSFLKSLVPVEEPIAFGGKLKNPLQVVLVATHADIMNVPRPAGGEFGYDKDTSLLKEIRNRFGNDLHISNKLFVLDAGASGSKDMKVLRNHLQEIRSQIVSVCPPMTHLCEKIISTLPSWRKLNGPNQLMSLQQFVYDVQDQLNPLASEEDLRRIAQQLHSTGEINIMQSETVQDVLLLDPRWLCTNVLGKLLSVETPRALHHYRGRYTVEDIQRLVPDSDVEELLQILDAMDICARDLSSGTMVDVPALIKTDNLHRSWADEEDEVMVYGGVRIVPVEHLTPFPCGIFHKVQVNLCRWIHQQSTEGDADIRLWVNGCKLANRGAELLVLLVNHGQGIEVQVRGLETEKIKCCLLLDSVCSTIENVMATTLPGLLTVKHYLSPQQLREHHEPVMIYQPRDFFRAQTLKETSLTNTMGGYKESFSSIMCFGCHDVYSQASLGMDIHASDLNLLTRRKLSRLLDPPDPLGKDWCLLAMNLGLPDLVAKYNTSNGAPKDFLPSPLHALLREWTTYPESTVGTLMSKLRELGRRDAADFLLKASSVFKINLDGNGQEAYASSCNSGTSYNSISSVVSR
Chain of UniProt P37173 (whole entry, looked up): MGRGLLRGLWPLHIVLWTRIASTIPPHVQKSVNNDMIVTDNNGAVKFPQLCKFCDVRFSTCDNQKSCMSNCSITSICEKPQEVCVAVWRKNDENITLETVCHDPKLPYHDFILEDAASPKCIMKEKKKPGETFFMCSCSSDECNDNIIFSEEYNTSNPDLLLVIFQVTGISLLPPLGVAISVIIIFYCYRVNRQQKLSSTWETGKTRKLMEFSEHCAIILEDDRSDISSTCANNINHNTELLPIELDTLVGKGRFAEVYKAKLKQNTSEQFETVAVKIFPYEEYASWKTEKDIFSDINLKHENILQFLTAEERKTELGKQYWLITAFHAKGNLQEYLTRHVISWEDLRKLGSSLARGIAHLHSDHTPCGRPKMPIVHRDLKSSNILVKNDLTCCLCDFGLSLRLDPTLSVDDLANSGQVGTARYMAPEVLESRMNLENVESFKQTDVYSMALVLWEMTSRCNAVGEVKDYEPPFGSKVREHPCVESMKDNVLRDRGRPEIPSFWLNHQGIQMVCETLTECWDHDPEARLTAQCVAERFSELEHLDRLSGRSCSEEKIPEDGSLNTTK
Chain of UniProt P36897 (whole entry, looked up): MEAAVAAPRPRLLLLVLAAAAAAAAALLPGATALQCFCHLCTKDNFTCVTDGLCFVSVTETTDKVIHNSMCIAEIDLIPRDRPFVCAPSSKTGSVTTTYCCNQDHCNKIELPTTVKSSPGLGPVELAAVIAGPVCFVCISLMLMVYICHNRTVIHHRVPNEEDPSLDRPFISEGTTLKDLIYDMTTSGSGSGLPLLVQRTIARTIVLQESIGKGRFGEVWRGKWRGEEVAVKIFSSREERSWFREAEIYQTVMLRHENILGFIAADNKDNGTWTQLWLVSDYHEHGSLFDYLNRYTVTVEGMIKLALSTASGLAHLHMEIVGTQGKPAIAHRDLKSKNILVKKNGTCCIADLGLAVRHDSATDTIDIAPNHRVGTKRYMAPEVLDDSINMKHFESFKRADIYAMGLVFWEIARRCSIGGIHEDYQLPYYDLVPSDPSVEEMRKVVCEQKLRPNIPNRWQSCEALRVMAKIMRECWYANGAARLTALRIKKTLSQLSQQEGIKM
Chain of UniProt P11802 (whole entry, looked up): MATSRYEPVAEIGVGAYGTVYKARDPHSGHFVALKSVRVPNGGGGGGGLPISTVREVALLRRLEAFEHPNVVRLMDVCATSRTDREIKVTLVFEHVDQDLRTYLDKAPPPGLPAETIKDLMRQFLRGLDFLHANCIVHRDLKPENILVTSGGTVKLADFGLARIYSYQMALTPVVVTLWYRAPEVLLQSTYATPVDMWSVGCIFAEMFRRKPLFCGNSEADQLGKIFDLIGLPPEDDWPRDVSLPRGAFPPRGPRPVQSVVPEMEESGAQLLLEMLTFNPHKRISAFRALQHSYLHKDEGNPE

Study 1
SMILES: CN1CCN(c2ccc3nc(-c4c(N)c5c(F)cccc5[nH]c4=O)[nH]c3c2)CC1
Observed: enzyme activity
Action: inhibitor
Tested at: 0.5 µM
Relative to: control
Measurement: remaining activity
cAMP-dependent protein kinase catalytic subunit alpha (PRKACA, Homo sapiens, UniProt P17612): 101%
Death-associated protein kinase 2 (DAPK2, Homo sapiens, UniProt Q9UIK4): 82.3%
Calcium/calmodulin-dependent protein kinase kinase 2 (CAMKK2, Homo sapiens, UniProt Q96RR4): 85.9%
Protein kinase C beta type, isoform beta-I (PRKCB, Homo sapiens, UniProt P05771): 99.2%
Serine/threonine-protein kinase Nek2 (NEK2, Homo sapiens, UniProt P51955): 104%
Mitogen-activated protein kinase kinase kinase 3 (MAP3K3, Homo sapiens, UniProt Q99759): 46.5%
Serine/threonine-protein kinase 10 (STK10, Homo sapiens, UniProt O94804): 41.6%
Serine/threonine-protein kinase Chk2 (CHEK2, Homo sapiens, UniProt O96017): 84.5%
Inhibitor of nuclear factor kappa-B kinase subunit beta (IKBKB, Homo sapiens, UniProt O14920): 87.8%
Cyclin-dependent kinase 4, with cyclin D1 (CDK4, Homo sapiens, UniProt P11802): 79.5%
TGF-beta receptor type-1 (TGFBR1, Homo sapiens, UniProt P36897): 99.3%
TGF-beta receptor type-2 (TGFBR2, Homo sapiens, UniProt P37173): 109%
STE20/SPS1-related proline-alanine-rich protein kinase (STK39, Homo sapiens, UniProt Q9UEW8): 92.3%
Calcium/calmodulin-dependent protein kinase type II subunit delta (CAMK2D, Homo sapiens, UniProt Q13557): 56.9%
Protein kinase C alpha type (PRKCA, Homo sapiens, UniProt P17252): 83.8%
cGMP-dependent protein kinase 1, isoform beta (PRKG1, Homo sapiens, UniProt Q13976): 84.5%
G protein-coupled receptor kinase 3 (GRK3, Homo sapiens, UniProt P35626): 97.5%
Death-associated protein kinase 1 (DAPK1, Homo sapiens, UniProt P53355): 108%
Serine/threonine-protein kinase OSR1 (OXSR1, Homo sapiens, UniProt O95747): 98.7%
Serine/threonine-protein kinase STK11 (STK11, Homo sapiens, UniProt Q15831): 104%

Study 2
Target: Diamine acetyltransferase 1 (Homo sapiens, UniProt P21673)
Action: inhibitor
Tested at: 10 µM
Relative to: control
Measurement: remaining activity
Target sequence (P21673 1-171): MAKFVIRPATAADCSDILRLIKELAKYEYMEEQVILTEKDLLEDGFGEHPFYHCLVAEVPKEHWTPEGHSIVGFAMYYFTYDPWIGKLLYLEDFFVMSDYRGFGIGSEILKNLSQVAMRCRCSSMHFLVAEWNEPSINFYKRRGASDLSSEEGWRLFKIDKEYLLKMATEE
C[C@@H]1O[C@@H](O[C@@H]2[C@@H](O)[C@H](OCCc3ccc(O)c(O)c3)O[C@H](CO[C@@H]3O[C@H](CO)[C@@H](O)[C@H](O)[C@H]3O)[C@H]2OC(=O)/C=C/c2ccc(O)c(O)c2)[C@H](O)[C@H](O)[C@H]1O: 102%
O=C(/C=C/c1ccccc1)OCc1ccccc1: 90.5%
C/C=C(\C)C(=O)O[C@H]1[C@H](OC(C)=O)[C@]2(CO)[C@H](O)C[C@]3(C)C(=CC[C@@H]4[C@@]5(C)CC[C@H](O[C@@H]6O[C@H](C(=O)O)[C@@H](O[C@@H]7O[C@H](CO)[C@@H](O)[C@H](O)[C@H]7O)[C@H](O)[C@H]6O[C@@H]6O[C@H](CO)[C@@H](O)[C@H](O)[C@H]6O)[C@](C)(CO)[C@@H]5CC[C@]43C)[C@@H]2CC1(C)C: 96.2%

Study 3
SMILES: CCC(=O)N[C@@H]1CC[C@H](C(=O)N(C)c2ccc(-c3nc4ccccc4o3)cc2)C1
Observed: cell-free assay
Technique: competition with immobilised ligand
Tested at: 1 µM
Measurement: remaining binding
Tyrosine-protein kinase JAK1, JH2 (JAK1, Homo sapiens, UniProt P23458): 88%
NT-3 growth factor receptor (NTRK3, Homo sapiens, UniProt Q16288): 100%
Calcium/calmodulin-dependent protein kinase type II subunit delta (CAMK2D, Homo sapiens, UniProt Q13557): 100%
Hormonally up-regulated neu tumor-associated kinase (HUNK, Homo sapiens, UniProt P57058): 100%

Study 4
Host: mouse
Matrix: microsomes or S9
Tested at: 2 µM
Time: 0.5 h
Measurement: remaining compound
Cc1cc(C)cc(-n2nc(C(=O)N(CC(N)=O)CC(C)C)cc2C)c1: 4.92%
COc1cccc(-c2csc(C3(c4ccc(OC)c(C)c4)N=C(N)N(C)C3=O)n2)c1 (stereo not shown): 16%
COC(=O)C1(CCCN(C)CCc2ccc(OC)c(OC)c2)CCCc2c1ccc(OC)c2OC (stereo not shown): 12.7%
OC(CN1CCCC1CC1CCCCC1)Cn1cccn1 (stereo not shown): 16.2%
Cc1nc2[nH]nc(N)c2c(C)c1-c1cnn(CCC(C)C)c1: 77%
CN(C(=O)NCC(=O)NC1C2CC3CC1CC(C(N)=O)(C3)C2)c1c(Cl)cc(Cl)cc1Cl (stereo not shown): 0.678%

Study 5
Structure (SMILES): CC(=O)N[C@@H](Cc1c[nH]c2ccccc12)C(=O)N[C@@H](CCC(=O)C=[N+]=[N-])C(=O)OC(C)C
Technique: UPLC-MS/MS metabolomics
Host: C57BL/6 CES1-/- mice, EL4 tumour
Matrix: EL4 tumour
Route: subcutaneous
Dose: 0.3 mg/kg/day DON equivalent
Time: 5 days
Setting: normalised to tissue mass
Measurement: peak intensity
item: S-adenosylmethionine: 1.12e+07 a.u. and 1.28e+07 a.u. and 1.24e+07 a.u. and 7.04e+06 a.u. and 7.99e+06 a.u.
item: adenine: 2.49e+06 a.u. and 3.94e+06 a.u. and 2.95e+06 a.u. and 3.31e+06 a.u. and 3.33e+06 a.u. and 3.06e+06 a.u.
item: UDP-glucose: 1.6e+06 a.u. and 2.06e+06 a.u. and 6.21e+06 a.u. and 4.98e+06 a.u. and 2.59e+06 a.u. and 8.32e+06 a.u.

Study 6
Structure (SMILES): CC(C)(C(=O)O)[C@H](NC(=O)Cc1cccc(I)c1)c1ccc2oc(=O)[nH]c2c1
Technique: Incucyte 3D growth
Tested at: 30 µM
Reading: higher = more growth
Measurement: spheroid area
NCI-H358; 156 h: 6.82e+06 a.u. and 5.82e+06 a.u. and 6.25e+06 a.u. and 7.99e+06 a.u. and 7.39e+06 a.u. and 5.58e+06 a.u.
NCI-H358; 228 h: 9.55e+06 a.u. and 7.38e+06 a.u. and 8e+06 a.u. and 9.59e+06 a.u. and 1.1e+07 a.u. and 7.8e+06 a.u.
KP-4; 144 h: 2.07e+07 a.u. and 1.99e+07 a.u. and 2.27e+07 a.u. and 1.61e+07 a.u. and 2.22e+07 a.u. and 2.06e+07 a.u.
MEL-JUSO; 270.52 h: 3.71e+07 a.u. and 1.85e+07 a.u. and 2.05e+07 a.u. and 2.27e+07 a.u. and 2.4e+07 a.u. and 2.13e+07 a.u.
